Measured values pooled from the literature.
Parts stem from different laboratories: compare values within a part only. Positions count from the first letter of the parent shown.

Series 1 — technique: protein-binding microarray; molecule type: double-stranded DNA, one strand shown; sample: in vitro; tested at: 2200 nM top; notes: 60-bp whole probe; with: salmon DNA 0.4 mg/ml; relative to: random background probes; reading: higher = stronger binding; all sequences stand within: GCCTAGCAC … GTCTTGATTCGCTTGACGCTGCTG
Target: Interferon regulatory factor 7, full length, phosphomimetic (IRF7, Homo sapiens, UniProt Q92985, residues 1-503, S471D/S472D/S475D/S476D/S477D/S483D/S484D/S487D)
Construct (chain): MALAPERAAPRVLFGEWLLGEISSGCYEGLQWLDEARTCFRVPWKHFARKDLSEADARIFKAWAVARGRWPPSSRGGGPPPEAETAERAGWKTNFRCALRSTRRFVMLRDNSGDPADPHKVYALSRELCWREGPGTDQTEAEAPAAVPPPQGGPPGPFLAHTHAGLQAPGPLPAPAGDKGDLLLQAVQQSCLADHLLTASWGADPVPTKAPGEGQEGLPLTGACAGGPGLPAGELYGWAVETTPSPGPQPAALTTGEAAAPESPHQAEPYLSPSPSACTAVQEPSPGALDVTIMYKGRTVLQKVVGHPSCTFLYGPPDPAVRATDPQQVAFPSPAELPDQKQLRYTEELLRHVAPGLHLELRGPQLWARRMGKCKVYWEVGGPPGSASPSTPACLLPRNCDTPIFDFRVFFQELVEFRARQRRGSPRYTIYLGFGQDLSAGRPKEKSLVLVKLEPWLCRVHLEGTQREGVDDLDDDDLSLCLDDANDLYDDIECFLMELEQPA
`TCAATTTTCTAAATGCCACTGTGCTAG` — result for “fitted relative affinity”: 2.26 z-score.
`GACGGATTGGGGTTTCGGGACGTGCTA`: “fitted relative affinity” 1.29 z-score.
Under “fitted relative affinity”, `CTGTTTTTGCTTTCCTTTATGTGCTAG` is recorded as 5.84 z-score.
Under “fitted relative affinity”, `TCACTTCTGGTGCTCATCTGGTGCTAG` is recorded as 1.41 z-score.
Under “fitted relative affinity”, `GACGGTATAGGTCTCGGGACGTGCTAG` is recorded as -0.287 z-score.
For `TTAGCTTTCGGGACTGGGTTAGTGCTA`, “fitted relative affinity” read 3.44 z-score.
`TTAGGACTGGTACTGGGTTAGTGCTAG` — result for “fitted relative affinity”: -0.682 z-score.
For `GACGGTTTCGGACTGGGGCCGTGCTAG`, “fitted relative affinity” read 3.51 z-score.
`GACGATATCAGACTGCAGACGTGCTAG`: “fitted relative affinity” 0.342 z-score.
For `TTAGGTTTCGTGTTTCGGTTAGTGCTA`, “fitted relative affinity” read 9.13 z-score.
For `ACGTCTTCATGTTTTTTTCTGTGCTAG`, “fitted relative affinity” read 1.82 z-score.
`TTAGGTATCCTATTCCTTTAGTGCTAG` — result for “fitted relative affinity”: 1.1 z-score.
`GACTATCTCAGTCTCGAGACGTGCTAG` — result for “fitted relative affinity”: 0.654 z-score.
For `TTAGGTTTCGGTCTCGTTTAGTGCTAG`, “fitted relative affinity” read 6.69 z-score.
`TTAGGTATCCTTTTTCTTTAGTGCTAG`: “fitted relative affinity” 0.92 z-score.
`GACGGTTTCGGTCCCGGGACGTGCTAG`: “fitted relative affinity” 5.43 z-score.
For `TTAGGACTGGGGTTTCGATTAGTGCTA`, “fitted relative affinity” read 2.04 z-score.
Under “fitted relative affinity”, `TTAGGTATCCTTATCCTTAAGTGCTAG` is recorded as 0.822 z-score.
For `TCAGTTTTCTGGTTCCCACTGTGCTAG`, “fitted relative affinity” read 5.52 z-score.

Series 2 — target: CCNB1, cyclin fold, Cln2 fusion (human); technique: yeast growth competition, sequencing; sample: yeast; notes: weak parent motif; relative to: not given; reading: higher = stronger binding
Parent: CDKN1A docking peptide (human); SKACRRLFGPVDS
`SKACRRLFEPVDS [G9E]` — result for “normalised enrichment score”: 0.133.
`SKACRRLFGPADS [V11A]` — result for “normalised enrichment score”: 0.787.
Under “normalised enrichment score”, `SKACRRLNGPVDS [F8N]` is recorded as 0.0605.
`SKACRRLFGPNDS [V11N]`: “normalised enrichment score” 0.268.
`SKACRNLFGPVDS [R6N]` — result for “normalised enrichment score”: 0.195.
For `SKACRRLFGPVLS [D12L]`, “normalised enrichment score” read 0.119.
`SKYCRRLFGPVDS [A3Y]`: “normalised enrichment score” 0.115.
For `SKACNRLFGPVDS [R5N]`, “normalised enrichment score” read 0.229.
`SKARRRLFGPVDS [C4R]`: “normalised enrichment score” 0.336.
For `SKRCRRLFGPVDS [A3R]`, “normalised enrichment score” read 0.121.
`SKAGRRLFGPVDS [C4G]`: “normalised enrichment score” 0.172.
`SKALRRLFGPVDS [C4L]` — result for “normalised enrichment score”: 0.0744.
For `SKPCRRLFGPVDS [A3P]`, “normalised enrichment score” read 0.452.
`SKFCRRLFGPVDS [A3F]`: “normalised enrichment score” -0.0986.

Series 3 — technique: protein binding microarray; molecule type: double-stranded DNA, one strand shown; sample: in vitro; tested at: not given; relative to: not given; reading: higher = stronger binding
Target: Histone acetyltransferase KAT6A, winged helix 1, GST fusion (KAT6A, Homo sapiens, UniProt Q92794, residues 1-85)
Notes: 8-mer, flanks averaged, mean of 2 arrays, mostly near background
Construct (chain): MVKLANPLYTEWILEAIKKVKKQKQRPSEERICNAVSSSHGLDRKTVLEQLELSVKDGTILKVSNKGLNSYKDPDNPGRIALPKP
`GGGCTGAA` has an E-score of 0.08.
`ATTTGGGC` has an E-score of -0.287.
`ACGGTAGC` gave an E-score of 0.121.
The E-score of `GAGTGCCC` is reported as -0.148.
`GATAATGA` gave an E-score of -0.16.
The E-score of `GCGTCCAA` is reported as 0.0311.
`GCATTCTA` gave an E-score of -0.105.
`CGGTAAAG` gave an E-score of 0.281.
`ACCTCCCT` has an E-score of -0.236.
The E-score of `AGGGCGGA` is reported as 0.183.
The E-score of `CCTGGAAC` is reported as -0.313.
`AGAGGCTG` gave an E-score of -0.313.
With `CCTCCTGC` the E-score was -0.253.
`GTTAGGTA` gave an E-score of -0.0341.
The E-score of `AAATCGCT` is reported as -0.00129.
For `GAGCAATC`, the E-score was -0.036.
`AATGGTCA` has an E-score of -0.225.
The E-score of `ACGTGACT` is reported as -0.108.
With `CTCATAAA` the E-score was -0.0463.
For `CATGTGCG`, the E-score was 0.213.
`GCCATGAC` has an E-score of 0.00912.
For `GATAAATC`, the E-score was -0.0326.
The E-score of `CAATCAAG` is reported as -0.149.
For `GGCAATGA`, the E-score was -0.0612.
With `AATCACGT` the E-score was -0.0209.

Series 4 — technique: universal PBM; molecule type: double-stranded DNA, one strand shown; sample: in vitro; tested at: 600 nM; reading: higher = stronger binding
Target: Sal-like protein 4, full length isoform A (SALL4, Homo sapiens, UniProt Q9UJQ4, residues 1-1053)
Chain of UniProt Q9UJQ4 (whole entry, looked up): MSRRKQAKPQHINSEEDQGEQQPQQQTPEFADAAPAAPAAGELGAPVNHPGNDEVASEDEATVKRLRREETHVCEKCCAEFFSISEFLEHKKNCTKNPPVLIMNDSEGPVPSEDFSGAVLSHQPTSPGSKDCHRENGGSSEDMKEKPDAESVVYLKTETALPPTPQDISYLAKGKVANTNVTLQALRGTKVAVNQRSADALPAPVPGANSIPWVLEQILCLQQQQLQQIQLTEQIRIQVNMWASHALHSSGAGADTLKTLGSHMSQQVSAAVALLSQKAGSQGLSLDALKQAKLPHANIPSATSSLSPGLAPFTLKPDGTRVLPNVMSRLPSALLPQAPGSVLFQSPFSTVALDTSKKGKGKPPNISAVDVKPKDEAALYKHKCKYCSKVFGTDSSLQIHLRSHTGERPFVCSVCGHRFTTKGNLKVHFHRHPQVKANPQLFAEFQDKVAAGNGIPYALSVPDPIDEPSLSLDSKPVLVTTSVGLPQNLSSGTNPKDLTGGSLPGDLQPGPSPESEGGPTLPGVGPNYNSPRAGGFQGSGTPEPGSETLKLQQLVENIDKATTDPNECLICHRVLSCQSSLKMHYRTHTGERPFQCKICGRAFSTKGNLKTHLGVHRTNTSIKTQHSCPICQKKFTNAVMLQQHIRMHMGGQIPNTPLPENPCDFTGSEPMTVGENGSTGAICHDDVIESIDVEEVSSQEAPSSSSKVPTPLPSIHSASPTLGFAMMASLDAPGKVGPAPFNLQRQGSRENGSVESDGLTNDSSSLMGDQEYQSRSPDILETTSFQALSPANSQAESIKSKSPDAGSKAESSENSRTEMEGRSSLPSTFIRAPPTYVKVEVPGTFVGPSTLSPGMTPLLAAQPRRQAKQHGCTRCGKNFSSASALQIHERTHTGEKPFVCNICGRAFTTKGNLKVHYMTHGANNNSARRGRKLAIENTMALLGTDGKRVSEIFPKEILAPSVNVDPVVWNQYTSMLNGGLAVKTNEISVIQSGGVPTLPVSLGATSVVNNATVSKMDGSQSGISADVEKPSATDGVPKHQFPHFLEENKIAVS
Notes: 8-mer, flanks averaged, mean of replicates
For `CTCTGAGA`, the E-score was -0.052.
`CGTGTAAG` has an E-score of -0.0197.
`ATGTACAT` gave an E-score of 0.335.
The E-score of `TCCTGCGA` is reported as -0.0369.
`CCTTTCTC` gave an E-score of 0.0947.
`CAGCCAGG` has an E-score of -0.291.
For `CACGATGG`, the E-score was -0.237.
`ACAAGTGT` has an E-score of -0.0387.
For `GAATACCA`, the E-score was 0.166.
For `ATAATTCA`, the E-score was 0.404.
`CTGTCGCA` gave an E-score of -0.123.
The E-score of `GACTTGAC` is reported as -0.0582.
`ACTGCATG` has an E-score of -0.0328.
With `CTTGACTC` the E-score was -0.122.
For `GACCCGGA`, the E-score was -0.389.
For `CCGTGCGC`, the E-score was -0.356.
For `CACAAGTA`, the E-score was 0.133.
`CGAAGGTC` gave an E-score of -0.135.
With `ACGTGAAT` the E-score was -0.0155.
With `ATCGTCGG` the E-score was -0.103.
With `CCCCTACA` the E-score was -0.135.
`AAATAACC` gave an E-score of 0.209.
For `CTTACTGA`, the E-score was 0.0744.
`GATCTGGC` gave an E-score of -0.129.

Series 5 — technique: RNA Bind-n-Seq; molecule type: RNA; sample: in vitro; tested at: 365 nM; relative to: no-protein control; reading: higher = stronger binding
Target: RNA binding protein fox-1 homolog 2, RRM domain, GST-SBP tag (RBFOX2, Homo sapiens, UniProt O43251-10, residues 100-194)
Notes: natural RNA segment, single round, ends assumed
All sequences stand within: GGGAGUUCUACAGUCCGACGAUC … UGGAAUUCUCGGGUGCCAA
`CUGAAAAUACCACCCCAGGAGAGGACCUCGCCCCAAGCAAGCCAGUGAGCAGCCCUGCCAGACUACUGCCAGACUGAGAAACCCAGAAGCUGGUAGUCAUGUGGGCUUGC`: “RBNS enrichment (R)” 0.639.
`AGUGUUCCCCUAGAAAGGAAGAGAUUUAAUUGCCAGUUAGAUGUGGCAUGAAAUGAGGGACAAAGAAAGCAUCUCGUAGGUGUGUCUACUGGGUUUUAACUUAUUUUUCU`: “RBNS enrichment (R)” 0.75.
For `CCCUUUGUCUUAAAGAAGACUAAUGUUAAUUGUUCUCAGAACUGGACGUUUUUUUUCCCCCCAUCAAAAUUAAAACUCUUUCUUUUGGAUUUAAUGAAGUAUUGCUAACU`, “RBNS enrichment (R)” read 0.898.
`CAAAACAUUCACCCGUAAUAGACUGAGAAUUGAGCCUUAACUUCAGAUUAACUUGUGAGAAUCAGGAAAAUUCCUUCAACUGCAUUGCAUCCUCUUGGACCAGGGCUAGA` — result for “RBNS enrichment (R)”: 1.95.
Under “RBNS enrichment (R)”, `UUGUGGACAAACCUGGCAGUUGAGCUUUGCAGUCAAUUAUGCCGUAUCCCUGUGCAAACUCCCAUGUUCUAGUUGCUGUUAGCAUCCCCUUUGUUGCUGUCUGAGAAAGU` is recorded as 2.03.
`AUUUAAGUGUUUUAGAUAAAUUUAAGUUACUCCAUAUGAAAUGUUUAAUUUCAGCUACUGUGAAUUCUUUCGAUCAGUCCUUUGCUUUUUUAAAAAAUCUUUUCCAUCGU`: “RBNS enrichment (R)” 1.14.
Under “RBNS enrichment (R)”, `GGCUGUCUCAGCACAAUACUCGACAUAACUGCAGAGCUGAUGUGGCUCAGGCACCCUGGUUUUAAUCCCUUGAGGAUCUGGCAAUUGGCUUACGUAAAGAAAGGGUCACC` is recorded as 0.367.
`GACCAAAUCUCACAGAAAAAUAGGCACUUUGGGCCAAAAGCUCUAAUGGAACAUUUUUAGUGGUGAUUUGGGGAAGGAAAGUUAAUGAGGUUUUUAAAAUAAGGUUUUCU`: “RBNS enrichment (R)” 0.434.

Excerpt of the above (series 1):
`TTAGGACTGGTACTGGGTTAGTGCTAG` — result for “fitted relative affinity”: -0.682 z-score.
For `GACGGTTTCGGACTGGGGCCGTGCTAG`, “fitted relative affinity” read 3.51 z-score.
`GACGATATCAGACTGCAGACGTGCTAG`: “fitted relative affinity” 0.342 z-score.
For `TTAGGTTTCGTGTTTCGGTTAGTGCTA`, “fitted relative affinity” read 9.13 z-score.
For `ACGTCTTCATGTTTTTTTCTGTGCTAG`, “fitted relative affinity” read 1.82 z-score.
`TTAGGTATCCTATTCCTTTAGTGCTAG` — result for “fitted relative affinity”: 1.1 z-score.
`GACTATCTCAGTCTCGAGACGTGCTAG` — result for “fitted relative affinity”: 0.654 z-score.
